Results pooled from the literature.
Parts stem from different laboratories: compare values within a part only.

Block 1 — technique: RNA Bind-n-Seq; molecule type: RNA; sample: in vitro; tested at: not given; baseline: input RNA pool; direction: higher = stronger binding
Target: RING finger protein unkempt homolog, zinc fingers 1-6, GST-SBP tag (UNK, Homo sapiens, UniProt Q9C0B0, residues 30-357)
UniProt Q9C0B0, sequence (30-357, looked up): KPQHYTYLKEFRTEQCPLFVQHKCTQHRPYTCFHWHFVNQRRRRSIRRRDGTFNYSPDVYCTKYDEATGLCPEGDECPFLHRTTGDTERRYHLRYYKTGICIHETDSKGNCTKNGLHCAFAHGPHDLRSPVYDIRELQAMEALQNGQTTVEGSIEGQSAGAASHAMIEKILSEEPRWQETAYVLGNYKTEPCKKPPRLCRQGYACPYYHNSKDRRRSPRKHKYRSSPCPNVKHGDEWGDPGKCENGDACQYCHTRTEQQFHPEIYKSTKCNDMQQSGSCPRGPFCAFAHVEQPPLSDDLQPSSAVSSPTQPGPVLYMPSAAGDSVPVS
Setting: RNA with constant flanks, human and mouse sites, ends assumed
`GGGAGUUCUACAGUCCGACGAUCGACAUGGAAAGCUAUGAGCGACAGAGAGAGAAGCAUGGAGAAGAUUUUUUCCCAACAUCCAACAGUCUUCUCCAUGGGACGCACGUGCCUUCCUCAGAGGAAAUUGACAGAAUGGUUUUACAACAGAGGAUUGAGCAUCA` has a bound/input enrichment of 0.186 ratio.
The bound/input enrichment of `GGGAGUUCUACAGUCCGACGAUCGUCAGGGUCGCCAGCGCCUCAGCUCUGUGGAGGAGCAGCAGUAGUCGGAGGGUGCAGGAUAUUAGAAAUGGCUACUCCCCAGUCAAUUUUCAUCUUUGCAAUCUGCAUUUUAAUGAUAACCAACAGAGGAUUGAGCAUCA` is reported as 0.42 ratio.
For `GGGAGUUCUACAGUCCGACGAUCACAAGACAAACAUAUGUUGGAUUCGCCUCAAAAAUCAAACAUCAAAUACAGAGGAAAUGGAUUAUCCAUCACUGGGACAGAGCAAUUUGAAAGGAAAUUAUCUUCACCAAAAAAACUUAACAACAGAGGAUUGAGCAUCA`, the bound/input enrichment was 0.142 ratio.
With `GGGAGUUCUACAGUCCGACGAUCGCUAGUCAGUCUGGGGCAACAUUCUUUAGCAUCUCUGCUUCAUCCUUAACUUCUAAAUGGGUAGGUGAGGGGGAGAAAAUGGUCCGUGCAUUGUUUGCUGUUGCAAGGUGUCAGCAACCACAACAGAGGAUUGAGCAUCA` the bound/input enrichment was 0.303 ratio.
With `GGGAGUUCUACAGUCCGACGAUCGAUUAUACAAUUCCCGAUGAGUAUAGAAUCGGACCAUAUCAGCCUAAUGUUCCUGUUGGUAUAGACUAUGUGAUACCUAAAACAGGGUUUUACUGUAAGCUGUGUUCACUCUUUUAUACACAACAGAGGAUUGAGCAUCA` the bound/input enrichment was 0.11 ratio.
`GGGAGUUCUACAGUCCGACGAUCACCUCCAGGGUGUACUCCAGAGACAGGACUCUCAAACCACGCGGAGUGUCCUUUUACCUGGAUAGGACUCUGUGGCUGGCCAAGUCCACCUCCUCAUCCUUUGCAUCAUUUAUAGUUCAACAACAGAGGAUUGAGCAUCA` gave a bound/input enrichment of 0.365 ratio.

Block 2 — technique: protein-binding microarray; molecule type: double-stranded DNA, one strand shown; sample: in vitro; tested at: 250 nM; setting: 60-bp whole probe; added: salmon DNA 0.4 mg/ml; baseline: random background probes; direction: higher = stronger binding; all sequences stand within: GCCTAGCAC … GTCTTGATTCGCTTGACGCTGCTG
Target: Interferon regulatory factor 7, full length, phosphomimetic (IRF7, Homo sapiens, UniProt Q92985, residues 1-503, S101K/S471D/S472D/S475D/S476D/S477D/S483D/S484D/S487D)
Target sequence (chain): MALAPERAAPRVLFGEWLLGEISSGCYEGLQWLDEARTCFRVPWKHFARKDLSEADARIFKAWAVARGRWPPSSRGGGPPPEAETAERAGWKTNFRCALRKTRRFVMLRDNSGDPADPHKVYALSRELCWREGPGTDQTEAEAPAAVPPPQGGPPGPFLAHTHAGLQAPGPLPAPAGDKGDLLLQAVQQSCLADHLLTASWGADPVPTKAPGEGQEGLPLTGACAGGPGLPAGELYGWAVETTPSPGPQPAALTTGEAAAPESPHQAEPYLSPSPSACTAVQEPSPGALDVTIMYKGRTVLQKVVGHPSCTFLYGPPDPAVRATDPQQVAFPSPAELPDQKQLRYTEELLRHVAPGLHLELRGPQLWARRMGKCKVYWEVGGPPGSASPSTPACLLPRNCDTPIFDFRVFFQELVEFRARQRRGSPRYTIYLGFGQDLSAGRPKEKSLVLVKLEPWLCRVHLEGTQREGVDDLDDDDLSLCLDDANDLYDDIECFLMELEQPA
`TGAGGTATCGGGACTGGGTTAGTGCTA` gave a log fluorescence of -0.487 z-score.
`TTAGTTCTCAGACTGGATTAGTGCTAG` has a log fluorescence of 0.594 z-score.
`TTAGGACTGGGGACTGGGATAGTGCTA` gave a log fluorescence of -0.728 z-score.
`CACGGACTGGGGTTTCGGGACGTGCTA` gave a log fluorescence of 0.919 z-score.
For `GCCGATATCAGACTGGAGACGTGCTAG`, the log fluorescence was -0.154 z-score.
`TTAGACATCAGTTTCGATTAGTGCTAG` has a log fluorescence of 8.62 z-score.
For `GATGGACTGGACTTTCGGGACGTGCTA`, the log fluorescence was -0.622 z-score.

Other studies, line by line
`PhoQ, residues 284 288 289 292 302 303 TLMATV` has a fold induction of 1.46 (PhoP, residues 12 14 15 18 19 MHTVL (Escherichia coli, UniProt P23836); Sort-seq, item: YFP reporter; E. coli; PhoQ-PhoP variant library, added: 10 µM Mg2+; baseline: high Mg2+ state, higher = stronger signaling).
`H1-2 (Homo sapiens, UniProt P16403)`: cross-linked residues “K130 to K113” (OTX2 (Homo sapiens, UniProt P32243); cross-linking MS; cells; added: BSPNO).
